# Published values collected from several papers.
# Compare with care: the assays were run in different laboratories. “And” joins repeats or separate records; there may be more than shown. Numbers after ± are the reported error.
Structure (SMILES),test,system,setting,scale,endpoint,result
CC1(C)CCC(CN2CCN(c3ccc(C(=O)NS(=O)(=O)c4ccc(NCC5CCOCC5)c([N+](=O)[O-])c4)c(Oc4cnc5[nH]ccc5c4)c3)CC2)=C(c2ccc(Cl)cc2)C1,"cell killing, flow cytometry PI exclusion","canine blood CD21+ B cells, dog 32",24 h,,EC50,125 nM
Cc1cc([C@H]2C[C@H]3[C@@H](CF)SC(N)=N[C@@]3(c3ccc(F)cc3F)CO2)on1,item: Aβx-40,"Mus musculus wild-type, cerebrospinal fluid","subcutaneous, 100 mg/kg, 5 h",,Aβ40 level,0.26 ng/mL
N#Cc1ccc2c(-c3ccncc3)c(-c3ccc(F)cc3)nn2c1,"kinase binding, competitor, MIB/MS competition, item: RTK1",Candida albicans cell lysate,10 µM,baseline: DMSO,log2 fold change,-0.0931
CC(c1cc2ccccc2s1)N(O)C(N)=O (stereo not shown),item: eicosapentaenoic acid,human whole blood,"3 µM, added: Escherichia coli",,amount,67100 ± 10700 pg/mL blood
OCC(O)CO,,female Slc25a13-/- Gpd2-/- mouse,"drinking water, 5% w/v, 2 days",,plasma FGF21,1230 pg/mL and 549 pg/mL
COc1cc(Nc2ncc3c(n2)-c2ccc(Cl)cc2C(c2c(F)cccc2OC)=NC3)ccc1C(=O)O,,"female NOD/scid mice, ALL-2 B-precursor ALL xenograft","20.8 mg/kg, 5 days weekly, score scale 0 to 10",direction not given,median response score,10
CN(CC(=O)O)C(=N)N,"binding, MIDAS equilibrium dialysis LC-MS",A2AR-BRIL thermostabilized,concentration not given,baseline: no-protein control,log2 fold change,-0.159
CCO[C@H]1CCN(Cc2c(OC)cc(C)c3[nH]ccc23)[C@H](c2ccc(C(=O)O)cc2)C1,,"PNH patients, blood","oral, 50 mg then 200 mg, week 12, mean absolute change",baseline: baseline,PNH RBC clone size,46.8%
C[C@H]1C[C@H]2CSC(N)=N[C@@]2(c2nc(NC(=O)c3ccc(OC(F)F)cn3)cs2)CO1,item: Aβ1-40,"healthy adults, plasma","50 mg once daily, day 2",baseline: placebo,percent change from baseline,-83.7%
COc1ccccc1[C@H](Cn1c(=O)n(C(C)(C)C(=O)O)c(=O)c2c(C)c(-c3ncco3)sc21)OC1CCOCC1,"[1-13C]acetate infusion, isotopomer analysis","overweight or obese healthy men, plasma VLDL-TG palmitate","oral, 20 mg single dose, 9 h post-dose, added: oral fructose",,fractional hepatic DNL,19.8 % new palmitate
COC[C@@H](c1ccc(C(F)(F)F)cc1)N1CCN(C2(C)CCN(C(=O)c3c(C)ncnc3C)CC2)C[C@@H]1C,,"HIV-1 infected patients, plasma","5 mg, week 24, with optimized background regimen",baseline: baseline,change in HIV-1 RNA,-2.06 log10 copies/mL
CC(C)NCC(O)c1ccc(O)c(O)c1 (stereo not shown),,"ventricular cardiomyocytes, C57BL/6 mouse","dose not given, 0.448 s",,sarcomere length,1.7 µm
Cc1coc([C@H]2C[C@H]3[C@@H](CF)SC(N)=N[C@@]3(c3ccc(F)cc3F)CO2)n1,item: Aβx-40,"wild-type mouse, brain","subcutaneous, 80 mg/kg, 1 h",,brain Aβ40 level,1.63 ng/g
CC1(C)C(/C=C/C=C/C=C/C=C2\N(CCCCS(=O)(=O)O)c3ccc4ccccc4c3C2(C)C)=[N+](CCCCS(=O)(=O)[O-])c2ccc3ccccc3c21,,mouse MMTV-PyMT mammary tumour model,"dose not given, 10 days post-surgery, after image-guided surgery",,recurrent tumour volume,34.2 mm³
CCOCc1nc(O)c(-c2nnc(Cc3ccc(Cl)cn3)o2)c(O)c1-c1c(OC)cccc1OC,,renal hypertensive rat,"po, 0.2 mg/kg once daily, peak exposure",baseline: vehicle,stroke volume increase,30%
Cn1cc(Nc2nccc(-c3ccc4c(c3)CN(C3COC3)CC[C@H]4NC(=O)c3cn(C(C)(C)C)nn3)n2)cn1,item: GDNF Family Ligand-Receptor Interactions,"splenic B cells, Mus musculus","30 mg/kg, added: IgD activation","baseline: vehicle, direction not given",pathway activation z-score,3
OC[C@H]1O[C@@H](c2ccc(Cl)c(Cc3ccc(O[C@H]4CCOC4)cc3)c2)[C@H](O)[C@@H](O)[C@@H]1O,"fasting plasma glucose, exposure-response PK/PD model",type 2 diabetes patients,final model estimate,,typical Gmax,0.217%
Cc1noc(C)c1-c1cc(C(O)(c2ccccn2)c2ccccn2)c2nc(C3CC3)[nH]c2c1,item: HEXIM1 expression,"human, peripheral blood","2 mg, day 1, 1604 study",,maximum induction,8%
Cc1sc2c(c1C)C(c1ccc(Cl)cc1)=N[C@@H](CC(=O)NCCCCCCCCNC(=O)COc1cccc3c1C(=O)N(C1CCC(=O)NC1=O)C3=O)c1nnc(C)n1-2 (stereo partly shown),flow cytometry,"mice, 4T1 tumour, tumour",dose not given,,regulatory T cells,8.11% and 8.94% and 9.96% and 8.15%
Cc1cn([C@H]2C[C@H](O)[C@@H](COP(=O)(O)O)O2)c(=O)[nH]c1=O,"binding, MIDAS equilibrium dialysis LC-MS",A2AR-BRIL thermostabilized,concentration not given,baseline: no-protein control,log2 fold change,0.199
O=C1O[C@H]([C@@H](O)CO)C(O)=C1O,,,"1.0 mg/mL, 30 min, 25 °C",,DPPH scavenging,96.1%
COC(=O)c1sc(-c2cccs2)cc1NC(=O)/C=C/C(=O)O,ELISA,"bone marrow-derived macrophages, C57BL/6J mice","dose not given, 48 h, added: LPS 24 h",,IL-6 release,decreased
COc1ccc2c(c1)CC[C@@H]1[C@@H]2CC[C@]2(C)[C@@H](NCCCCCCN3C(=O)C=CC3=O)CC[C@@H]12,,"mouse, humanized UT, subarachnoid haemorrhage, meninges","dose not given, day 1",baseline: total area,GFAP-positive area,0.38% and 0.33% and 0.76%
C=CCn1c(=O)c2cnc(Nc3ccc(N4CCN(C)CC4)cc3)nc2n1-c1ccc2c(n1)[C@@](O)(CC)CC2,,"SK-OV-3 xenograft, NOD/SCID mice","oral, 80 mg/kg, day 17, once daily intermittent x 3 cycles",,tumour growth inhibition,46.6%
C[C@@H](NC(=O)N1C(=O)[C@H](Cc2ccnc(N)c2)[C@H]1C(=O)O)C1CCCCC1,,human,"iv infusion, 1.0 mg/kg/h, 24 h",,ACT Emax,136 s
Cc1cc([C@H]2C[C@H]3[C@@H](C)SC(N)=N[C@@]3(c3ccc(F)cc3F)CO2)on1,item: Aβx-40,"Mus musculus wild-type, cerebrospinal fluid","subcutaneous, 50 mg/kg, 7 h",,Aβ40 level,0.52 ng/mL
c1ccc(-c2n[nH]cc2-c2ccnc3ccccc23)nc1,"kinase binding, competitor, MIB/MS competition, item: RTK1",Candida albicans cell lysate,10 µM,baseline: DMSO,log2 fold change,1.26
Oc1ccc(Br)cc1C=NCCN1CCOCC1,FRAP,,160 µM,,ferric reducing power,31.3%
CC(=O)N[C@H]1[C@H]([C@H](O)[C@H](O)CO)O[C@](OP(=O)(O)OC[C@H]2O[C@@H](n3ccc(N)nc3=O)[C@H](O)[C@@H]2O)(C(=O)O)C[C@@H]1O,"binding, MIDAS equilibrium dialysis LC-MS",A2AR-BRIL thermostabilized,concentration not given,baseline: no-protein control,log2 fold change,-0.163
CCCCCN1C[C@H](O)[C@@H](O)[C@H](O)[C@@H]1CO,"RNA sequencing, item: Hallmark interferon alpha genes","Hexb-/- mouse, hippocampus",300 mg/kg/day,direction not given,genomic disease score,0.47
N#Cc1ccc2c(c1)[C@H]1CCCN(C(=O)c3ccc4[nH]cnc4c3)[C@H]1C2,,"T2DM patients with overweight or obesity, plasma","oral, 240 mg, day 15 (360 h), multiple dosing, mean",,fasting plasma glucose,137 mg/dL
C[C@@H](O)CCOC(=O)C[C@@H](C)O,item: C16:2 acylcarnitine,"human, plasma","60 min, log2-transformed values",,metabolite level,-7.1 ± 0.72 µmol/L
COc1ncc(-c2nc3c(n2C(C)C)[C@H](c2ccc(Cl)cc2)N(c2cc(Cl)cn(C)c2=O)C3=O)c(OC)n1,International Working Group criteria,human acute myeloid leukemia patients,"oral, 150 mg, response CR, high-dose, other doses",,best overall response,0%
CSCCNc1nc(SCCC(F)(F)F)nc2c1ncn2[C@@H]1O[C@H](COP(=O)(O)OP(=O)(O)C(Cl)(Cl)P(=O)(O)O)[C@@H](O)[C@H]1O,light transmittance aggregometry,"human patients, platelet-rich plasma","dose not given, 3 h, added: ADP 20 µM",baseline: patients,patients with IPA above 80%,2.6%
OC(CCN1CCCCC1)(c1ccccc1)C1CC2C=CC1C2 (stereo not shown),resting-state EEG,healthy elderly humans,"oral, 4 mg, eyes closed, LS mean",baseline: baseline,change in EEG Beta2-power Pz-O2,-13.1%
Cc1n[nH]c2ccc(-c3cc(OC[C@@H](N)Cc4ccccc4)cnc3-c3ccoc3)cc12,"kinase binding, competitor, MIB/MS competition, item: HRR25",Candida albicans cell lysate,100 nM,baseline: DMSO,log2 fold change,-0.165
CN(C)C(=O)Oc1cccc([N+](C)(C)C)c1,neuromuscular block reversal,rat,"dose not given, 22.5 (unit not given), added: cisatracurium",baseline: T1 twitch,train-of-four ratio,99.5
N#Cc1ccn2c(-c3ccncc3)c(-c3ccc(F)cc3)nc2c1,"kinase binding, competitor, MIB/MS competition, item: CAK1",Candida albicans cell lysate,100 nM,baseline: DMSO,log2 fold change,0.0171
Nc1ccn([C@@H]2O[C@H](COP(=O)(O)OP(=O)(O)O)[C@@H](O)[C@H]2O)c(=O)n1,"binding, MIDAS equilibrium dialysis LC-MS",A2AR-BRIL thermostabilized,concentration not given,baseline: no-protein control,log2 fold change,-0.76
Cn1cc([C@H]2C[C@H]3CSC(N)=N[C@@]3(c3ccc(F)cc3F)CO2)cn1,item: Aβx-42,"Mus musculus wild-type, brain","subcutaneous, 10 mg/kg, 1 h",,Aβ42 level,0.54 ng/g
FC(F)(F)Oc1cccc(-c2cnc3ccc(-c4ccncc4)nn23)c1,bioluminescence imaging,"mouse, MDA-MB-231-Luc xenograft","30 mg/kg, day 21",,tumour bioluminescence,5.63e+10 photons/s and 1.42e+11 photons/s and 6.15e+10 photons/s and 1.28e+10 photons/s and 2.21e+10 photons/s
CC(C)(COP(=O)(O)OP(=O)(O)OC[C@H]1O[C@@H](n2cnc3c(N)ncnc32)[C@H](O)[C@@H]1OP(=O)(O)O)[C@@H](O)C(=O)NCCC(=O)NCCS,"binding, MIDAS equilibrium dialysis LC-MS",A2AR-BRIL thermostabilized,concentration not given,baseline: no-protein control,log2 fold change,-0.818
CC(=O)Oc1cc2c(s1)CCN(C(C(=O)C1CC1)c1ccccc1F)C2 (stereo not shown),"platelet aggregation, light transmission aggregometry","human patients, platelet-rich plasma","2 h, added: TRAP 15 µM",,patients with IPA above 90%,0%

# For quick reference, copied from above:
Structure (SMILES),test,system,setting,scale,endpoint,result
N#Cc1ccc2c(-c3ccncc3)c(-c3ccc(F)cc3)nn2c1,"kinase binding, competitor, MIB/MS competition, item: RTK1",Candida albicans cell lysate,10 µM,baseline: DMSO,log2 fold change,-0.0931
CC(c1cc2ccccc2s1)N(O)C(N)=O (stereo not shown),item: eicosapentaenoic acid,human whole blood,"3 µM, added: Escherichia coli",,amount,67100 ± 10700 pg/mL blood
OCC(O)CO,,female Slc25a13-/- Gpd2-/- mouse,"drinking water, 5% w/v, 2 days",,plasma FGF21,1230 pg/mL and 549 pg/mL
COc1cc(Nc2ncc3c(n2)-c2ccc(Cl)cc2C(c2c(F)cccc2OC)=NC3)ccc1C(=O)O,,"female NOD/scid mice, ALL-2 B-precursor ALL xenograft","20.8 mg/kg, 5 days weekly, score scale 0 to 10",direction not given,median response score,10
CN(CC(=O)O)C(=N)N,"binding, MIDAS equilibrium dialysis LC-MS",A2AR-BRIL thermostabilized,concentration not given,baseline: no-protein control,log2 fold change,-0.159
